Measurements gathered from unrelated publications.
Each numbered part is a random draw from the data of one study; scales do not carry over between parts. Substitutions count along the parent as printed.

Sample 1
Target: Ras GTPase-activating protein-binding protein 1, full length (G3BP1, Homo sapiens, UniProt Q13283)
Sequence of UniProt Q13283 (whole entry, looked up): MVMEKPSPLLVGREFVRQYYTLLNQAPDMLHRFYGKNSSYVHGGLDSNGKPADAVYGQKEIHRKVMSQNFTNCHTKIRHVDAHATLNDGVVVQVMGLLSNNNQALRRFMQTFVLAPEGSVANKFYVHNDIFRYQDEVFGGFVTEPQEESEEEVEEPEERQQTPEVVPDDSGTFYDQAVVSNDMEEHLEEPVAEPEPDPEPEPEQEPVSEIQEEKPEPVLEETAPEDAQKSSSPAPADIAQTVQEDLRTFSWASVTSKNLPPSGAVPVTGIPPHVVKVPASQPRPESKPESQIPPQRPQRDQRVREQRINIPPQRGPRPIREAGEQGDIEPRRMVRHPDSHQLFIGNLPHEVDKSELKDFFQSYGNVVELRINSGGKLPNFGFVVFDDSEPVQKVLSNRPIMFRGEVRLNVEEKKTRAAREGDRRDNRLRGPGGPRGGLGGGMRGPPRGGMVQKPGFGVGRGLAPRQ
Method: RNA Bind-n-Seq
Molecule type: RNA
Matrix: in vitro
Tested at: 200 nM
Notes: whole 134-nt RNA, ends assumed
Together with: 150 mM KCl
Relative to: input library
Direction: higher = stronger binding
Shared flanks, not repeated: GGGAGUUCUACAGUCCGACGAUC … UGGAAUUCUCGGGUGUCAAGG
Strand	log2 enrichment
CCUCAAGUCCUGUGCUACACAUCGUAUGUACCGAAUCGGGCCGGCCGGGCCGGAAAGUAUUAUGUUACGCCGUUCGGAUCUGCACUUCCA	-0.217
UUGCAGGAGCCGCCGCGCCUCGGCCUAGCAUGUCGGAAGCGGGCGAGGAGCAGCCCAUGGAGACGACGGGCGCCACCGAGAACGGACAUG	-0.261
CCUGUGCUACACAUCGUAUGUACCGAAUCAAAUUUUUUUAAACCCCCAAAUUUUUUUAAAAAAGUAUUAUGUUACGCCGUUCGGAUCUGC	-0.125
CCUCAAGUCCUGUGCUACACAUCGUAUGUACCGAAUCGGUUUGGUUUGGUGGAAAGUAUUAUGUUACGCCGUUCGGAUCUGCACUUCCAG	-0.298
CAAGUCCUGUGCUACACAUCGUAUGUACCGAAUCGGGUUUGGGAAAAAGGGAGGGAAAGUAUUAUGUUACGCCGUUCGGAUCUGCACUUC	1.02
CAAGUCCUGUGCUACACAUCGUAUGUACCGAAUCGGGAAAGGGUGGGAAAAAGGGAAAGUAUUAUGUUACGCCGUUCGGAUCUGCACUUC	0.819
CACAGACAACACGCACCCACACAGACGCAGAGGGAAGGGGUUGGGAUGGGGACAGGGUGCACAGCAGGGCGGGGUAGGACCCCAGCCCCU	1.73
CCUCAAGUCCUGUGCUACACAUCGUAUGUACCGAAUCGGGCGGGGCGGGCGGGAAAGUAUUAUGUUACGCCGUUCGGAUCUGCACUUCCA	1.71
AGUCCUGUGCUACACAUCGUAUGUACCGAAUCGGGGAGGGGUUUUUGGGGAAAGGGGAAAGUAUUAUGUUACGCCGUUCGGAUCUGCACU	0.443

Sample 2
Target: CCNE1, cyclin fold, Cln2 fusion (human)
Method: yeast growth competition, sequencing
Matrix: yeast
Notes: weak parent motif
Relative to: not given
Direction: higher = stronger binding
Starting sequence: ORC1 docking peptide (human); PRARKRLELGNLG
Variant	normalised enrichment score
P1V	-0.338
G10M	0.327
L7P	-1.14
A3Q	0.797
N11K	-0.0933
K5P	0.293
N11F	0.703
A3W	0.506
N11W	0.936
E8C	-0.171
L7C	0.0671
N11L	0.856
R6S	-0.0779
N11R	0.634
L9E	0.0656
G13I	-0.492

Sample 3
Target: ABI1, truncated, D143A, DHFR fusion (Arabidopsis thaliana)
Method: DHFR PCA, deep sequencing
Matrix: yeast
Notes: methotrexate growth selection, single substitutions
Together with: (+)-ABA 0.11 µM
Relative to: wild-type fitted maximum
Direction: higher = stronger binding
Starting sequence: PYL1, truncated, DHFR fusion (Arabidopsis thaliana); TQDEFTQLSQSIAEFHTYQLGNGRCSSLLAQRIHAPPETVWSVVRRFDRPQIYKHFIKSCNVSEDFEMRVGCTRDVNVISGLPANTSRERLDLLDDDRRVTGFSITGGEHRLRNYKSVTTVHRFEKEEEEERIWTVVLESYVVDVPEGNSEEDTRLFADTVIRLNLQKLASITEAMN; partner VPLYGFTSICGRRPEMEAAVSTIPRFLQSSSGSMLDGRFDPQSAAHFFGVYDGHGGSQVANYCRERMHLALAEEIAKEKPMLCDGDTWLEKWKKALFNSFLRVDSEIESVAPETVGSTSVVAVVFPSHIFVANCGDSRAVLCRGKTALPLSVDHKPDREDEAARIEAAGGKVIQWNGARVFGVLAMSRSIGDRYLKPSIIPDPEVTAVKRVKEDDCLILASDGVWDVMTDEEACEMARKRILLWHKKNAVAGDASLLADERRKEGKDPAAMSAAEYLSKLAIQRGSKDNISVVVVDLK
Variant	relative binding score [%]
N149S	63.2
I57H	-5.46
L82Q	17
R111T	1.14
L20E	36.4
D97P	-6.88
Q7F	30.9
G148V	-0.471
I105M	7.15
I133Q	40.7
R88I	39.8
L169V	1.26
A35I	-0.098
D65T	9.28
S87D	2.87

Sample 4
Target: Sal-like protein 4, full length isoform A (SALL4, Homo sapiens, UniProt Q9UJQ4, residues 1-1053)
Sequence of UniProt Q9UJQ4 (whole entry, looked up): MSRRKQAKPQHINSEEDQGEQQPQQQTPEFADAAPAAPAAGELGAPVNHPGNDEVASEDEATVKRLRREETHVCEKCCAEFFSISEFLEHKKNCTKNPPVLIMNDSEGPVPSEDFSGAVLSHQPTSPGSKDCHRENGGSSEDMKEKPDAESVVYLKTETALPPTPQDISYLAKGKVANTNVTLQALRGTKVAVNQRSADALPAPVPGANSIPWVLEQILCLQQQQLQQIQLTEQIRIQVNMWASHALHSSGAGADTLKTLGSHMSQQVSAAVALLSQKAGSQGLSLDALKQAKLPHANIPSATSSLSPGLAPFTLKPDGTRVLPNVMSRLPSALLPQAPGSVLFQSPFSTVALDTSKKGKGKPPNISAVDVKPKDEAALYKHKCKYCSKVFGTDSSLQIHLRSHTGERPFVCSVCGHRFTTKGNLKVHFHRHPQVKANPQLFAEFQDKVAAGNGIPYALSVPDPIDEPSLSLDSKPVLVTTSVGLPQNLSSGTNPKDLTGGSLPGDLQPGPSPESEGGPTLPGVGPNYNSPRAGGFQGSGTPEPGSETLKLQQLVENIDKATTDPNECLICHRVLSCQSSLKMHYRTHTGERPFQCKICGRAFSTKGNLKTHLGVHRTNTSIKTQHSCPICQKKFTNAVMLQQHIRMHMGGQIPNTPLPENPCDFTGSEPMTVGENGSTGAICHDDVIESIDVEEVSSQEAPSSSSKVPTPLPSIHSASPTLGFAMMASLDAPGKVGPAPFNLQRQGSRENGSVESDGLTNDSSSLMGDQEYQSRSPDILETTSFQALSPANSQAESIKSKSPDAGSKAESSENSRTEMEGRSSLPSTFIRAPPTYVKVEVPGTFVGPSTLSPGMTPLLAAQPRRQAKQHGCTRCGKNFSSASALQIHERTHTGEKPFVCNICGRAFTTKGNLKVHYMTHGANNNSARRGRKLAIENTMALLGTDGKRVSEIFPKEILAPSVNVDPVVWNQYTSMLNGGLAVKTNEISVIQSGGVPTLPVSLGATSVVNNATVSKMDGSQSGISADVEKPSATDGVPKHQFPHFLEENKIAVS
Method: universal PBM
Molecule type: double-stranded DNA, one strand shown
Matrix: in vitro
Tested at: 600 nM
Notes: 8-mer, flanks averaged, mean of replicates
Direction: higher = stronger binding
Strand	E-score
CCACTTAG	-0.0365
ACGATAAT	0.357
GATACTCC	-0.209
GATTTTCA	0.282
ATAGGAAT	0.235
CGATTAAC	0.0518
CACGAAAC	-0.0675
GTCGCAAC	-0.0814
TCCAAAGA	0.0759
AACTACCA	0.125
AAGGTGAC	-0.0223
AATACGAG	0.184
GATGTTCA	-0.0538
GAGGAGAA	-0.0162
CACGTTAA	0.151
AGTACTCG	0.0498
AGCGATCA	-0.105
TGGACGAA	0.146
TGAAATAA	0.372
CTCCTTTC	-0.0695
AAGCAGCA	-0.124
ATAACCTC	0.241
AGGTAATC	0.0812
ATCGGTAG	0.138
ACGCGGCG	-0.294

Sample 5
Target: RNA binding protein fox-1 homolog 2, RRM domain, GST-SBP tag (RBFOX2, Homo sapiens, UniProt O43251-10, residues 100-194)
Method: RNA Bind-n-Seq
Molecule type: RNA
Matrix: in vitro
Tested at: 365 nM
Notes: natural RNA segment, single round, ends assumed
Relative to: no-protein control
Direction: higher = stronger binding
Shared flanks, not repeated: GGGAGUUCUACAGUCCGACGAUC … UGGAAUUCUCGGGUGCCAA
Target sequence (chain): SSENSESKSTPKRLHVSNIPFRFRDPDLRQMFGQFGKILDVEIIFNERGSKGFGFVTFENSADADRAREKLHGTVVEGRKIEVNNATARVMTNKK
Strand	RBNS enrichment (R)
AACAAUCUUCAAGAGCCCUGUAAGGUUAAUGCCGAUAAAAUGACUGACUCCGCCCUUCUUCCUUAGUACGUAGUAUCCAGCAAGCAUUUGCCCCACCUUGUCUUGUUGAU	0.774
AUGUUAGGAUCCUUCAACAGUUUCUCAGAUGCCAGCUAUGGCUGGCAUCCAGUAUGGUGGUGUAAUGGAAGUGUACUACUAGCACUACUACAUCAGGUCAGCACAGAUUA	0.299
UCACACUGGAAGGAGGCUAAGUCUCAGUCUUCAAGUUCUGGACUUUCUUCUCUCCAGUGGCACUUGUUGGCAACUAGAUACAGGUUUCUAACCGGUUCACGGUUCACCCC	0.183
CUUCCCUGCCAGGUGCCUGUCACCUGUCUUCACUGCCUCCUUUUCCCUGUCAUGCUCAUCAGCUUAUGGCUUCUGUCUAAGCACCUGAACAGAGGACUGAAACCUCCACU	0.596
GAAGUCGGCCCUCCCUGCUGGCAUAGACCUGAGUGCCAGUGCAGCUCAGCAGAGCACUGACACACACAGGAGACUUUUCUCGAUUAACCGCCCUGCCCGAGCAGCGUUCC	0.313
GGUAGUGCUCUAUCUGGUCAGGCUAUAGGCUGCGGGCAGCCUUCACUUCCAACCAGCCGCUGUGAGGAUUUAGUGAGCUAACGCAUGUAAGCAUUUAGCAAGGUGCCUGG	20
UCAGGUUAAUGAUUUAUUUUUUGACUAAAUGUGCAAUUUCUUAUCACUAGAUAACUUUCAGUAUCAGUGGUGGUUACUUAUUACUUAAAUCAGAGGAAGGAUUUUAUAAA	0.449
CCGCGCCCUACAGUACCUCAGGAUCAUGGCGGGUAGCAAGUAGCAUCCCACUGCAGUGAUGGAUAUGCAUCUUUUACUUCUUGCUCCUUCUGCCCCUGGGUCCAUGUAUC	0.89

Other studies, line by line
Molecule	target	assay	test system	setting	scale	endpoint	result
PhoQ, residues 284 288 289 292 302 303 AQGLTV	PhoP, residues 12 14 15 18 19 GHCSL (Escherichia coli, UniProt P23836)	Sort-seq, refers to: YFP reporter	E. coli	PhoQ-PhoP variant library, together with: 10 µM Mg2+	relative to: high Mg2+ state, higher = stronger signaling	fold induction	19

Excerpt of the above (sample 2):
Variant	normalised enrichment score
A3Q	0.797
N11K	-0.0933
K5P	0.293
N11F	0.703
A3W	0.506
N11W	0.936
E8C	-0.171
L7C	0.0671
N11L	0.856
R6S	-0.0779
N11R	0.634
